Experimental data from different studies.
Values joined by “and” are separate records of one study, mostly repeats; a detail may differ. Numbers after ± are the reported error.
U2AF2: U2AF2 148-342 (Homo sapiens, UniProt P26368)
Chain of UniProt P26368 (whole entry, looked up): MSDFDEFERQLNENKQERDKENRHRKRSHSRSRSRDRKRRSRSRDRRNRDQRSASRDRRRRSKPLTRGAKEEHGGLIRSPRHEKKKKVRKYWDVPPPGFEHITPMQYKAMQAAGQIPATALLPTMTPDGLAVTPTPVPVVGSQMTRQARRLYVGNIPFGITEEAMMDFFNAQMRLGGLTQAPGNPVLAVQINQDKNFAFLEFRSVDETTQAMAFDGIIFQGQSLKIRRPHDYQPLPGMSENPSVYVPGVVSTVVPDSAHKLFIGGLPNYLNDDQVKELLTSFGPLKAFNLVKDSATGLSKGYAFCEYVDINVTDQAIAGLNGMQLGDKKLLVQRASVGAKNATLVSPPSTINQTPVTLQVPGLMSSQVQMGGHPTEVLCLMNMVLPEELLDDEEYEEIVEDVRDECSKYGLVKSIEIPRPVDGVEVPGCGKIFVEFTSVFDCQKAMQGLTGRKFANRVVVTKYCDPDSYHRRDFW
B1: STAT1 (human); sequence looked up; chain SQWYELQQLDSKFLEQVHQLYDDSFPMEIRQYLAQWLEKQDWEHAANDVSFATIRFHDLLSQLDDQYSRFSLENNFLLQHNIRKSKRNLQDNFQEDPIQMSMIIYSCLKEERKILENAQRFNQAQSGNIQSTVMLDKQKELDSKVRNVKDKVMCIEHEIKSLEDLQDEYDFKCKTLQNREHETNGVAKSDQKQEQLLLKKMYLMLDNKRKEVVHKIIELLNVTELTQNALINDELVEWKRRQQSACIGGPPNACLDQLQNWFTIVAESLQQVRQQLKKLEELEQKYTYEHDPITKNKQVLWDRTFSLFQQLIQSSFVVERQPCMPTHPQRPLVLKTGVQFTVKLRLLVKLQELNYNLKVKVLFDKDVNERNTVKGFRKFNILGTHTKVMNMEESTNGSLAAEFRHLQLKEQKNAGTRTNEGPLIVTEELHSLSFETQLCQPGLVIDLETTSLPVVVISNVSQLPSGWASILWYNMLVAEPRNLSFFLTPPCARWAQLSEVLSWQFSSVTKRGLNVDQLNMLGEKLLGPNASPDGLIPWTRFCKENINDKNFPFWLWIESILELIKKHLLPLWNDGCIMGFISKERERALLKDQQPGTFLLRFSESSREGAITFTWVERSQNGGEPDFHAVEPYTKKELSAVTFPDIIRNYKVMAAENIPENPLKYLYPNIDKDHAFGKYYSRPKEAPEPMELDGPKGTGYIKTELISVSEVHPSRLQTTDNLLPMSPEEFDEVSRIVGSVEFDSMMNTV
B2: human TRIM28; sequence looked up; chain AASAAAASAAAASAASGSPGPGEGSAGGEKRSTAPSAAASASASAAASSPAGGGAEALELLEHCGVCRERLRPEREPRLLPCLHSACSACLGPAAPAAANSSGDGGAAGDGTVVDCPVCKQQCFSKDIVENYFMRDSGSKAATDAQDANQCCTSCEDNAPATSYCVECSEPLCETCVEAHQRVKYTKDHTVRSTGPAKSRDGERTVYCNVHKHEPLVLFCESCDTLTCRDCQLNAHKDHQYQFLEDAVRNQRKLLASLVKRLGDKHATLQKSTKEVRSSIRQVSDVQKRVQVDVKMAILQIMKELNKRGRVLVNDAQKVTEGQQERLERQHWTMTKIQKHQEHILRFASWALESDNNTALLLSKKLIYFQLHRALKMIVDPVEPHGEMKFQWDLNAWTKSAEAFGKIVAERPGTNSTGPAPMAPPRAPGPLSKQGSGSSQPMEVQEGYGFGSGDDPYSSAEPHVSGVKRSRSGEGEVSGLMRKVPRVSLERLDLDLTADSQPPVFKVFPGSTTEDYNLIVIERGAAAAATGQPGTAPAGTPGAPPLAGMAIVKEEETEAAIGAPPTATEGPETKPVLMALAEGPGAEGPRLASPSGSTSSGLEVVAPEGTSAPGGGPGTLDDSATICRVCQKPGDLVMCNQCEFCFHLDCHLPALQDVPGEEWSCSLCHVLPDLKEEDGSLSLDGADSTGVVAKLSPANQRKCERVLLALFCHEPCRPLHQLATDSTFSLDQPGGTLDLTLIRARLQEKLSPPYSSPQEFAQDVGRMFKQFNKLTEDKADVQSIIGLQRFFETRMNEAFGDTKFSAVLVEPPPMSLPGAGLSSQELSGGPGDGP
B3: human USP15; sequence looked up; chain AEGGAADLDTQRSDIATLLKTSLRKGDTWYLVDSRWFKQWKKYVGFDSWDKYQMGDQNVYPGPIDNSGLLKDGDAQSLKEHLIDELDYILLPTEGWNKLVSWYTLMEGQEPIARKVVEQGMFVKHCKVEVYLTELKLCENGNMNNVVTRRFSKADTIDTIEKEIRKIFSIPDEKETRLWNKYMSNTFEPLNKPDSTIQDAGLYQGQVLVIEQKNEDGTWPRGPSTPKSPGASNFSTLPKISPSSLSNNYNNMNNRNVKNSNYCLPSYTAYKNYDYSEPGRNNEQPGLCGLSNLGNTCFMNSAIQCLSNTPPLTEYFLNDKYQEELNFDNPLGMRGEIAKSYAELIKQMWSGKFSYVTPRAFKTQVGRFAPQFSGYQQQDCQELLAFLLDGLHEDLNRIRKKPYIQLKDADGRPDKVVAEEAWENHLKRNDSIIVDIFHGLFKSTLVCPECAKISVTFDPFCYLTLPLPMKKERTLEVYLVRMDPLTKPMQYKVVVPKIGNILDLCTALSALSGIPADKMIVTDIYNHRFHRIFAMDENLSSIMERDDIYVFEININRTEDTEHVIIPVCLREKFRHSSYTHHTGSSLFGQPFLMAVPRNNTEDKLYNLLLLRMCRYVKISTETEETEGSLHCCKDQNINGNGPNGIHEEGSPSEMETDEPDDESSQDQELPSENENSQSEDSVGGDNDSENGLCTEDTCKGQLTGHKKRLFTFQFNNLGNTDINYIKDDTRHIRFDDRQLRLDERSFLALDWDPDLKKRYFDENAAEDFEKHESVEYKPPKKPFVKLKDCIELFTTKEKLGAEDPWYCPNCKEHQQATKKLDLWSLPPVLVVHLKRFSYSRYMRDKLDTLVDFPINDLDMSEFLINPNAGPCRYNLIAVSNHYGGMGGGHYTAFAKNKDDGKWYYFDDSSVSTASEDQIVSKAAYVLFYQRQDTFSGTGFFPLDRETKGASAATGIPLESDEDSNDNDNDIENENCMHTN
B4: human desmocollin-1; sequence looked up; chain RWAPIPASLMENSLGPFPQHVQQIQSDAAQNYTIFYSISGPGVDKEPFNLFYIEKDTGDIFCTRSIDREKYEQFALYGYATTADGYAPEYPLPLIIKIEDDNDNAPYFEHRVTIFTVPENCRSGTSVGKVTATDLDEPDTLHTRLKYKILQQIPDHPKHFSIHPDTGVITTTTPFLDREKCDTYQLIMEVRDMGGQPFGLFNTGTITISLEDENDNPPSFTETSYVTEVEENRIDVEILRMKVQDQDLPNTPHSKAVYKILQGNENGNFIISTDPNTNEGVLCVVKPLNYEVNRQVILQVGVINEAQFSKAASSQTPTMCTTTVTVKIIDSDEGPECHPPVKVIQSQDGFPAGQELLGYKALDPEISSGEGLRYQKLGDEDNWFEINQHTGDLRTLKVLDRESKFVKNNQYNISVVAVDAVGRSCTGTLVVHLDDYNDHAPQIDKEVTICQNNEDFAVLKPVDPDGPENGPPFQFFLDNSASKNWNIEEKDGKTAILRQRQNLDYNYYSVPIQIKDRHGLVATHMLTVRVCDCSTPSECRMKDKSTRDVRPNVILGRWAILAMVLGSVLLLCILFTCFCVTAKRTVKKCFPEDIAQQNLIVSNTEGPGEEVTEANIRLPMQTSNICDTSMSVGTVGGQGIKTQQSFEMVKGGYTLDSNKGGGHQTLESVKGVGQGDTGRYAYTDWQSFTQPRLGEKVYLCGQDEEHKHCEDYVCSYNYEGKGSLAGSVGCCSDRQEEEGLEFLDHLEPKFRTLAKTCIKK
Chain of UniProt P13393 (whole entry, looked up): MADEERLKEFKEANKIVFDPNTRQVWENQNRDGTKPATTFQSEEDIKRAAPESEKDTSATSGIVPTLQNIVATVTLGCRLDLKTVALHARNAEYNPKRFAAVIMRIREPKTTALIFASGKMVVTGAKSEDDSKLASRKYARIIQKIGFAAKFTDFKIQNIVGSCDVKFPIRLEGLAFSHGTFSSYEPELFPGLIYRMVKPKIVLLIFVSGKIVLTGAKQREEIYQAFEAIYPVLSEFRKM

`B1 (STAT1)`: “log2 fold change” 1.08 (CYB5R4 knockout human cells; PP4 interaction, 3xFLAG-PP4C IP-MS; concentration not given; baseline: CYB5R4 KO over parental).
For `epoetin alfa`, the mRNA level was 3 fold (UT7/EPO; RT-qPCR, refers to: THBS1; concentration not given, 90 min, normalized to HPRT1; baseline: vehicle).
With `human ME2 I99V` the Hill coefficient was 1.01 ± 0.03 (enzyme activity, NADH absorbance; with fumarate 3 mM, with: L-malate varied).
For `SEKHFRETEV`, the binding intensity was 0.816 (construct, MBP fusion, human SCRIB, PDZ 3-4; automated holdup; peptide, crude extract; concentration not given, corrected by standard peak, unit not given; baseline: biotin control resin, higher = stronger binding).
`difelikefalin`: “PGIC minimally worse” 1.7% (Japanese haemodialysis patients with pruritus; intravenous, 1.0 µg/kg, 8 weeks).
With `colistin` the MIC was no more than 0.5 µg/mL (Citrobacter freundii; clinical isolate RKI 604/16).
Under “log2 fold change”, `B2 (human TRIM28)` is recorded as -0.56 (CYB5R4 knockout human cells; PP4 interaction, 3xFLAG-PP4C IP-MS; concentration not given; baseline: CYB5R4 KO over parental).
`CAUUUCCUA (ssRNA)` gave a Kd of 1100 nM (U2AF2; sequencing of bound RNA; RNA; motif only).
For `liraglutide`, the liver triglycerides was 17 ± 1.3 mg/dL (Wistar rat, female, diet-induced obese, liver tissue; subcutaneous, dose not given, after 4 weeks treatment).
`CGTCACTGGCGTGACCGTCCGCGCTACATACTGCGTCAAGTCAATCGGTCC (dsDNA; 5'-amino-C6 primer)` has a Kd of 17.8 ± 1.49 nM (SPT15 full length assumed (Saccharomyces cerevisiae, UniProt P13393); array; double-stranded DNA, one strand shown; TBP alone).
The OD600 of `milbemycin oxime` is reported as 0.056 and 0.057 and 0.067 (Saccharomyces cerevisiae; cell growth; Pdr5 deleted, Cdr1 overexpressed; 2^-4.966 µg/mL, with: fluconazole 10 µg/mL).
`Peginesatide` has a phosphorylation level of 2.7 fold (UT7/EPO; tyrosine phosphorylation, LC-MS/MS phosphoproteomics, trypsin, refers to: FCGR2A tyrosine 304; 10 nM, 15 min, with: 10 U/mL EPO; baseline: vehicle).
With `GGUUUUGUU (ssRNA)` the Kd was 5790 nM (U2AF2; sequencing of bound RNA; RNA; motif only).
Under “log2 fold change”, `B3 (human USP15)` is recorded as -0.98 (CYB5R4 knockout human cells; PP4 interaction, 3xFLAG-PP4C IP-MS; concentration not given; baseline: CYB5R4 KO over parental).
`GSGAGRETEV`: “normalised SPR binding response” 41.9 normalised RU (construct, MBP fusion, human SCRIB, PDZ 3-4; surface plasmon resonance; peptide; concentration not given; higher = stronger binding).
For `B4 (human desmocollin-1)`, “log2 fold change” read 0.83 (CYB5R4 knockout human cells; PP4 interaction, 3xFLAG-PP4C IP-MS; concentration not given; baseline: CYB5R4 KO over parental).
`QSARYRDTEL` gave a binding intensity of 0.472 (construct, MBP fusion, human SCRIB, PDZ 3-4; automated holdup; peptide, purified PDZ protein; concentration not given, unit not given; baseline: biotin control resin, higher = stronger binding).

Excerpt of the above:
`difelikefalin`: “PGIC minimally worse” 1.7% (Japanese haemodialysis patients with pruritus; intravenous, 1.0 µg/kg, 8 weeks).
For `B4 (human desmocollin-1)`, “log2 fold change” read 0.83 (CYB5R4 knockout human cells; PP4 interaction, 3xFLAG-PP4C IP-MS; concentration not given; baseline: CYB5R4 KO over parental).
